Results pooled from the literature.

Cc1cnc(Nc2cc(C)c(C)c(C)c2)nc1Nc1ccc2oc(=O)[nH]c2c1: “lung eosinophil count” “decreased” (rat, OVA asthma model; intratracheal, dose not given, 24 h after OVA challenge; reference: vehicle).
CCOC(=O)c1cc2c(N)c(C(=O)OC)sc2nc1C — result for “duration of diuretic effect”: about 8 h (wild-type mice; subcutaneous, 100 mg/kg).
Under “duration of complete prevention”, Cc1ccccc1-c1cc(N2CCN(C(=O)CCC(=O)O)CC2)ccc1N(C)C(=O)C(C)(C)c1cc(C(F)(F)F)cc(C(F)(F)F)c1 is recorded as 4 h (mechanical allodynia, antagonist, von Frey test; hNK1R-407 mice; intrathecal, 5 µL, 100 nM, with: capsaicin).
For CCCC[C@H](NC(=O)[C@@H](NC(=O)[C@H](CC(=O)O)NC(=O)[C@H](CCC(N)=O)NC(=O)[C@H](CC(C)C)NC(=O)[C@H](CC(C)C)NC(=O)[C@H](CCCN)NC(=O)[C@H](CCCNC(=N)N)NC(=O)[C@H](C)NC(=O)[C@H](CO)NC(=O)[C@H](CC(C)C)NC(=O)[C@H](CCC(N)=O)NC(=O)[C@H](CC)NC(=O)[C@H](CC(C)C)NC(=O)[C@@H](NC(=O)[C@H](CCCN)NC(=O)[C@H](CCCNC(=N)N)NC(=O)[C@H](Cc1ccc(O)cc1)NC(=O)[C@H](CO)NC(=O)[C@H](CC(N)=O)NC(=O)[C@@H](NC(=O)[C@H](Cc1c(F)c(F)c(F)c(F)c1F)NC(=O)[C@@H](NC(=O)[C@H](C)NC(=O)[C@H](CC(=O)O)NC(=O)[C@@H](C)NC(=O)CCc1ccc(O)cc1)[C@@H](C)CC)[C@@H](C)O)C(C)C)[C@@H](C)CC)C(=O)N[C@@H](CO)C(=O)N[C@@H](CCCNC(=N)N)C(=O)NCCCC(N)=O, the relative potency was 1.36 (GH release; rat, male, serum; subcutaneous, 3 µg/kg, 30 min; reference: reference GHRH agonist JI-38).
CC(C)[C@@H]1NC(=O)[C@H](Cc2ccccc2)NC(=O)[C@]2(CC[C@H](c3ccccc3)CC2)NC(=O)[C@@H](N)CSSC[C@@H](C(=O)N2CCC[C@H]2C(=O)N[C@@H](CCCNC(=N)N)C(=O)NCC(N)=O)NC(=O)[C@H](CC(N)=O)NC1=O gave a pA2 of 6.85 (pressor response, antagonist; phenoxybenzamine-treated male rats, urethane anaesthesia; intravenous, 1 min before AVP, with: AVP).
For O=C1c2c(O)cc(O)c(-c3ccc(O)c(O)c3)c2OC1Cc1ccc(O)c(O)c1 (stereo not shown), the EC50 was 1130 µM (ABTS scavenging, absorbance).
With CCCC[C@H](NC(=O)[C@@H](NC(=O)[C@H](CC(=O)O)NC(=O)[C@H](CCC(N)=O)NC(=O)[C@H](CC(C)C)NC(=O)[C@H](CC(C)C)NC(=O)[C@H](CCCN)NC(=O)[C@H](CCCNC(=N)N)NC(=O)[C@H](C)NC(=O)[C@H](CO)NC(=O)[C@H](CC(C)C)NC(=O)[C@H](CCC(N)=O)NC(=O)[C@H](CC)NC(=O)[C@H](CC(C)C)NC(=O)[C@@H](NC(=O)[C@H](CCCN)NC(=O)[C@H](CCCNC(=N)N)NC(=O)[C@H](Cc1ccc(O)cc1)NC(=O)[C@H](CO)NC(=O)[C@H](CCC(N)=O)NC(=O)[C@@H](NC(=O)[C@H](Cc1ccccc1)NC(=O)[C@@H](NC(=O)[C@H](C)NC(=O)[C@H](CC(=O)O)NC(=O)[C@@H](C)NC(=O)[C@H](Cc1ccc(O)cc1)N(C)C(C)=O)[C@@H](C)CC)[C@@H](C)O)C(C)C)[C@@H](C)CC)C(=O)N[C@@H](CC(=O)O)C(=O)NCCCCNC(=N)N the relative potency was 33.6 (GH release; male rat, serum; subcutaneous, dose not given, 30 min; reference: GHRH(1-29)NH2).
CCCCCCCCCCCCCCCC(=O)OCC(CSC[C@H](N)C(=O)N[C@@H](CO)C(=O)N[C@@H](CCCCN)C(=O)N[C@@H](CCCCN)C(=O)N[C@@H](CCCCN)C(=O)N[C@@H](CCCCN)C(=O)NCCCCCC(=O)N[C@@H](CCCCN)C(=O)N[C@@H](CC(C)C)C(=O)N[C@H](C(=O)N[C@@H](Cc1ccccc1)C(=O)N[C@@H](Cc1ccccc1)C(=O)N[C@@H](Cc1ccc2ccccc2c1)C(=O)O)C(C)C)OC(=O)CCCCCCCCCCCCCCC (stereo partly shown) — result for “OC-positive plaque area”: “increased” (APP/PS1 mouse; intracortical, dose not given, 2 d; reference: vehicle).
With C[C@@H](O)[C@@H]1NC(=O)[C@H](CCCCN)NC(=O)[C@@H](Cc2ccc(NC(N)=O)cc2)NC(=O)[C@H](Cc2ccc(NC(=O)[C@@H]3CC(=O)NC(=O)N3)cc2)NC(=O)[C@H](NC(=O)[C@H](Cc2ccc(Cl)cc2)NC(=O)CN2CCN(CC(=O)O)CCN(CC(=O)O)CCN(CC(=O)O)CC2)CSSC[C@@H](C(=O)N[C@H](Cc2ccc(O)cc2)C(N)=O)NC1=O [gallium-68 labelled] the median SUVmax was 18 (PET/CT; neuroendocrine tumour patients, liver metastases; 80 µg peptide mass).
Under “tumour volume reduction”, CCCCCN(CCCCC)C(C)C(=O)c1cc(C)c2ccc3cc(C(C)C)ccc3c2c1.Cl (stereo not shown) is recorded as 93.6% (humanized PD-1 mouse, MC38-hPD-L1 tumour; intraperitoneal, 10 mg/kg, 10 days; reference: vehicle).

Repeated from above:
With C[C@@H](O)[C@@H]1NC(=O)[C@H](CCCCN)NC(=O)[C@@H](Cc2ccc(NC(N)=O)cc2)NC(=O)[C@H](Cc2ccc(NC(=O)[C@@H]3CC(=O)NC(=O)N3)cc2)NC(=O)[C@H](NC(=O)[C@H](Cc2ccc(Cl)cc2)NC(=O)CN2CCN(CC(=O)O)CCN(CC(=O)O)CCN(CC(=O)O)CC2)CSSC[C@@H](C(=O)N[C@H](Cc2ccc(O)cc2)C(N)=O)NC1=O [gallium-68 labelled] the median SUVmax was 18 (PET/CT; neuroendocrine tumour patients, liver metastases; 80 µg peptide mass).
